# Experimental data from different studies.
# Protocols differ between the studies behind these lines. Values joined by “and” are separate records of one study, mostly repeats; a detail may differ. Numbers after ± are the reported error.
# IDE: Insulin-degrading enzyme (IDE, Homo sapiens, UniProt P14735)
Structure (SMILES),target or system,test,system,conditions,how to read,endpoint,value
CCCC(CCC)C(=O)O,HBL-1,,,"0.5 µM, 120 h",,viability,124%
Cc1cc(Nc2ncc(Cl)c(Nc3ccccc3S(=O)(=O)C(C)C)n2)c(OC(C)C)cc1C1CCNCC1,CLB-GE,"phosphoproteomics LC-MS/MS, item: ATXN1L phosphorylation",,"200 nM, 60 min",reference: untreated,log2 fold change,-1.85
Cc1cn([C@@H]2O[C@H](CO)[C@@H](O)[C@H]2O)c(=O)nc1N,HBL-1,,,"1 µM, 120 h",,viability,97.5%
COc1cc(/C=C/C(=O)N2CCC=CC2=O)cc(OC)c1OC,BT-12,"cell viability, MTT",,"10 µM, 72 h",,inhibition,95%
Cn1cc(-c2ccc(-c3cncc(Cl)c3N3CCC4(CCNC4=O)CC3)cc2)cn1,COLO 205,"gene expression, microarray, item: SLC2A1 mRNA",,"concentration not given, 2 h",reference: untreated cells,log2 fold change,3.47
Cn1cc(Nc2nccc(-c3ccc4c(c3)CN(C3COC3)CC[C@H]4NC(=O)c3cn(C(C)(C)C)nn3)n2)cn1,mouse splenic B cells,item: TNFR2 signalling,,"30 mg/kg, IgD-activated in vivo","reference: vehicle, direction not given",pathway activation z-score,0
COc1cc(/C=C/C(=O)N2CCC=CC2=O)cc(OC)c1OC,MDA-MB-468,"qRT-PCR, item: GPX7",,"30 µM, 6 h",reference: time zero,mRNA level,89.9 ± 19.8%
Nc1ncn([C@H]2C[C@H](O)[C@@H](CO)O2)c(=O)n1,HBL-1,,,"1 µM, 120 h",,viability,31.5%
Cc1ccccc1-c1ccc([C@H]2[C@@H](CO)N3CCCCN(C(=O)Nc4ccc(F)cc4)C[C@@H]23)cc1,IDE,"enzyme activity, inhibitor, fluorogenic kinetic",,together with: Mca-RPPGFSAFK(Dnp)-OH substrate,,EC50,3000 nM
CCS(=O)(=O)c1nc(C2CC2)cc(C(F)(F)F)n1,HeLa Kyoto,"RelA nuclear import, high content imaging",,"0.02 µM, 3 h, together with: 1 µM PMA, 60 min",,cells with nuclear RelA,66.5% and 77.7%
O=C(O)CC[C@H](NC(=O)N[C@@H](CCCCNC(=O)[C@H](Cc1ccc2ccccc2c1)NC(=O)CCCCCNC(=O)CN1CCN(CC(=O)O)CCN(CC(=O)O)CCN(CC(=O)O)CC1)C(=O)O)C(=O)O [gallium-68 labelled],,PET/CT SUVmean,mice with 22Rv1 xenograft,"intravenous, 3.7 MBq, 4 h",,tumour to non-tumour ratio,4.61 ± 0.55
O=C(C[C@@H](C(F)F)n1ccc(F)n1)N1CCC(O)(Cn2cnc3c(cnn3-c3ccc(F)cc3)c2=O)CC1,CHP-212 parental,"cell viability, SRB",,mean of 3 runs,,IC50,94.1 nM
Oc1cc(O)c2cc(O)c(-c3cc(O)c(O)c(O)c3)[o+]c2c1,HBL-1,,,"0.5 µM, 120 h",,viability,130%
CO[C@@H]1CN(C)C(=O)c2cc(NC(=O)c3ccc(Oc4ccccc4)cc3)ccc2OC[C@@H](C)NC[C@@H]1C,IDE,"enzyme activity, inhibitor, fluorogenic kinetic",,together with: Mca-RPPGFSAFK(Dnp)-OH substrate,,EC50,2400 nM
CC#CC(=O)Nc1cc2c(Nc3ccc(F)c(Cl)c3)ncnc2cn1,HeLa expressing Ub(G76V)-GFP,"Ub(G76V)-GFP degradation, inhibitor, cycloheximide chase",,12 µM,,inhibition,17%
O=C(CCCCCN1C(=O)c2cccc3cccc(c23)C1=O)NO,HBL-1,,,"0.5 µM, 120 h",,viability,86.7%
CCn1cc(-c2cc(Cn3ccoc3=N)cc3c2CCN([C@@H](C)c2cc(OC)ccn2)C3=O)c(C(F)(F)F)n1,HuTu80,"cell growth, inhibitor",,120 h,,EC50,4130 nM
Cc1cc(Nc2nc(-c3ccccc3)nc3ccccc23)n[nH]1,HeLa expressing Ub(G76V)-GFP,"Ub(G76V)-GFP degradation, cycloheximide chase",,12 µM,,inhibition,19%
CCN(CC)Cc1ccc2cc(COC(=O)Nc3ccc(C(=O)NO)cc3)ccc2c1,HBL-1,,,"0.5 µM, 120 h",,viability,2.34%
Cl.O=C(Nc1ccccc1-c1cn2c(CN3CCNCC3)csc2n1)c1cnc2ccccc2n1,BT-12,"cell viability, MTT",,"10 µM, 72 h",,inhibition,94.4%
Cc1cnc(Nc2ccc(OCCN3CCCC3)cc2)nc1Nc1cccc(S(=O)(=O)NC(C)(C)C)c1,iCell cardiomyocytes hiPSC-derived,impedance,,"concentration not given, 2 h",reference: vehicle,beat rate,107%
CCCCCCOC(=O)[C@]1(O)C[C@@H]2O[C@@]1(C)n1c3ccccc3c3c4c(c5c6ccccc6n2c5c31)C(=O)NC4,SK-OV-3,ATP,3D gellan gum culture,"10 µM, 4 days",reference: untreated,relative cell number,44.3%
Clc1ccc(N/N=C(\c2ccccc2)c2ccccn2)nc1,HBL-1,,,"0.1 µM, 120 h",,viability,16.1%
CC[C@H]1CN2CCc3cc(OC)c(OC)cc3[C@@H]2C[C@@H]1C[C@H]1NCCc2cc(OC)c(OC)cc21,BT-12,"cell viability, MTT",,"10 µM, 72 h",,inhibition,95.8%
COc1cnc2cccc(N3CCc4c(cc(Cn5ccnc5C)cc4-c4cn(C)nc4C(F)(F)F)C3=O)c2c1,OCI-Ly7,"cell growth, inhibitor",,120 h,,EC50,> 30000 nM
O=C(Nc1cccc(Nc2cc(Nc3cccc(C(F)(F)F)c3)ncn2)c1)C1CC1,HeLa expressing Ub(G76V)-GFP,"Ub(G76V)-GFP degradation, inhibitor, cycloheximide chase",,12 µM,,inhibition,39%

# A few entries again:
Structure (SMILES),target or system,test,system,conditions,how to read,endpoint,value
CCCC(CCC)C(=O)O,HBL-1,,,"0.5 µM, 120 h",,viability,124%
CCn1cc(-c2cc(Cn3ccoc3=N)cc3c2CCN([C@@H](C)c2cc(OC)ccn2)C3=O)c(C(F)(F)F)n1,HuTu80,"cell growth, inhibitor",,120 h,,EC50,4130 nM
Cc1cnc(Nc2ccc(OCCN3CCCC3)cc2)nc1Nc1cccc(S(=O)(=O)NC(C)(C)C)c1,iCell cardiomyocytes hiPSC-derived,impedance,,"concentration not given, 2 h",reference: vehicle,beat rate,107%
CC[C@H]1CN2CCc3cc(OC)c(OC)cc3[C@@H]2C[C@@H]1C[C@H]1NCCc2cc(OC)c(OC)cc21,BT-12,"cell viability, MTT",,"10 µM, 72 h",,inhibition,95.8%
